Experimental data of several laboratories.
Protocols differ between the studies behind these lines. Several values in a cell are separate wells, animals, samples, runs or records. Numbers after ± are the reported error.
MAPK8: Mitogen-activated protein kinase 8 (MAPK8, Homo sapiens, UniProt P45983)
Chain of UniProt Q8H1R0 (whole entry, looked up): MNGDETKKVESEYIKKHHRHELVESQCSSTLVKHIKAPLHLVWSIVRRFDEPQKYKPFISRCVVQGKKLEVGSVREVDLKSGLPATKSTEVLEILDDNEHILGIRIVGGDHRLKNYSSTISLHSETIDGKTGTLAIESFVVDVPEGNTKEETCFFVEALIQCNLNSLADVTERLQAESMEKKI
Chain of UniProt P45983 (whole entry, looked up): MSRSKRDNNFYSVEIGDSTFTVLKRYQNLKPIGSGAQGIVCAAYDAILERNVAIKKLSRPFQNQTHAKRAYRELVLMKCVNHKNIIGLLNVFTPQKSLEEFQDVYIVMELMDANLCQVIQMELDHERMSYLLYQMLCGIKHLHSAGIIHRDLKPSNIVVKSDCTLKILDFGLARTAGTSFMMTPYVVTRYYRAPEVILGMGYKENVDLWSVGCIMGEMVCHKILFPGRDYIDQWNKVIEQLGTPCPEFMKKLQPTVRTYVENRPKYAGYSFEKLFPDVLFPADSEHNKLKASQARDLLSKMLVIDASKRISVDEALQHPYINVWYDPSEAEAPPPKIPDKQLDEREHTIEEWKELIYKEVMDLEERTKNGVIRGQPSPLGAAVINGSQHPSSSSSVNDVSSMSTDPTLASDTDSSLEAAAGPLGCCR
Chain of UniProt Q9NSD7 (whole entry, unmodified, looked up): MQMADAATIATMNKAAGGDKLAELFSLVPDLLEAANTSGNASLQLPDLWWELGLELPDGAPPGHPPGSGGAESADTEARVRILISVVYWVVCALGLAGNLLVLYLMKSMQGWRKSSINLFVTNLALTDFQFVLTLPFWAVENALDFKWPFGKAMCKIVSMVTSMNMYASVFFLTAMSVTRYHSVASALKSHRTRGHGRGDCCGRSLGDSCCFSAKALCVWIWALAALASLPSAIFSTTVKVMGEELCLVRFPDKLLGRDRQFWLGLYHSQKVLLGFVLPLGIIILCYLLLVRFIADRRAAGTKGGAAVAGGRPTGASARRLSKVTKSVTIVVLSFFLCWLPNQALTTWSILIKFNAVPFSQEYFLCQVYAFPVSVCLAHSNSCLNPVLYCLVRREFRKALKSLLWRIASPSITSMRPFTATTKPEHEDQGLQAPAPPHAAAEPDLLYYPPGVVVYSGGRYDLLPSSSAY
Chain of UniProt O15355 (whole entry, looked up): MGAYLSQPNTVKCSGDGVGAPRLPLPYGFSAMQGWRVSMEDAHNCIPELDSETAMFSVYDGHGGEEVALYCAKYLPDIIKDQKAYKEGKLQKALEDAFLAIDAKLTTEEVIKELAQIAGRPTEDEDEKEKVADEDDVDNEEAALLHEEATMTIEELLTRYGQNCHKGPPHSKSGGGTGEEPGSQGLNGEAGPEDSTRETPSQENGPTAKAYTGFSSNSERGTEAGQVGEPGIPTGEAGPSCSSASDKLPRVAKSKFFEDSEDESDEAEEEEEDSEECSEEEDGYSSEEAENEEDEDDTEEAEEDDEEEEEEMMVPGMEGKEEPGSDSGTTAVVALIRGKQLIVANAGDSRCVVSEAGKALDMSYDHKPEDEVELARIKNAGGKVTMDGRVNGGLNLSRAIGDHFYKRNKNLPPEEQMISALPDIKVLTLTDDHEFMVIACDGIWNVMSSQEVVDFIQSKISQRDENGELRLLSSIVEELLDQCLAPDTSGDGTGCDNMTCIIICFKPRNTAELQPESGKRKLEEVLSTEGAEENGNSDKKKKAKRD
Chain of UniProt P06748 (whole entry, looked up): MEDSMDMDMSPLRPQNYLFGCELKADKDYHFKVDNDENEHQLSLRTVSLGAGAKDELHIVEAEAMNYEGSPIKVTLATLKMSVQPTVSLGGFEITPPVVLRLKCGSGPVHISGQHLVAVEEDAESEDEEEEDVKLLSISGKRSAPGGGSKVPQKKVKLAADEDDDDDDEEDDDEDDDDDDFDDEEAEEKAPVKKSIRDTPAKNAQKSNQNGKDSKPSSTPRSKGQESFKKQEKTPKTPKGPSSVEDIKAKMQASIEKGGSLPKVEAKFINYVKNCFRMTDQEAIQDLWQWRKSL
Chain of UniProt P05187 (whole entry, looked up): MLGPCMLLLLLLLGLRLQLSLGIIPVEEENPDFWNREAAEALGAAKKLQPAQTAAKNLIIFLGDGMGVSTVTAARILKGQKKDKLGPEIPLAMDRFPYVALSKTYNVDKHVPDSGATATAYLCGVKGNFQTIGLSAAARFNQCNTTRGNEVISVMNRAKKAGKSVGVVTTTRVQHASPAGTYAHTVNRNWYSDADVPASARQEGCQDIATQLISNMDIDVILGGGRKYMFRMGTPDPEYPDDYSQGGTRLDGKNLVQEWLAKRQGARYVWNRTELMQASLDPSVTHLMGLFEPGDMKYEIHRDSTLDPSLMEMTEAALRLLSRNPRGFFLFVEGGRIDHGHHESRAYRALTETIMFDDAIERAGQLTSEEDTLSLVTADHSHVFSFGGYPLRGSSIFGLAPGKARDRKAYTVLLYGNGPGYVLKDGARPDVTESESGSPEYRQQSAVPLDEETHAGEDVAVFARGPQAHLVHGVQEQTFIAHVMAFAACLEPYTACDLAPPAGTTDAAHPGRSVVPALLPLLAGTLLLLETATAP
Chain of UniProt O75385 (whole entry, looked up): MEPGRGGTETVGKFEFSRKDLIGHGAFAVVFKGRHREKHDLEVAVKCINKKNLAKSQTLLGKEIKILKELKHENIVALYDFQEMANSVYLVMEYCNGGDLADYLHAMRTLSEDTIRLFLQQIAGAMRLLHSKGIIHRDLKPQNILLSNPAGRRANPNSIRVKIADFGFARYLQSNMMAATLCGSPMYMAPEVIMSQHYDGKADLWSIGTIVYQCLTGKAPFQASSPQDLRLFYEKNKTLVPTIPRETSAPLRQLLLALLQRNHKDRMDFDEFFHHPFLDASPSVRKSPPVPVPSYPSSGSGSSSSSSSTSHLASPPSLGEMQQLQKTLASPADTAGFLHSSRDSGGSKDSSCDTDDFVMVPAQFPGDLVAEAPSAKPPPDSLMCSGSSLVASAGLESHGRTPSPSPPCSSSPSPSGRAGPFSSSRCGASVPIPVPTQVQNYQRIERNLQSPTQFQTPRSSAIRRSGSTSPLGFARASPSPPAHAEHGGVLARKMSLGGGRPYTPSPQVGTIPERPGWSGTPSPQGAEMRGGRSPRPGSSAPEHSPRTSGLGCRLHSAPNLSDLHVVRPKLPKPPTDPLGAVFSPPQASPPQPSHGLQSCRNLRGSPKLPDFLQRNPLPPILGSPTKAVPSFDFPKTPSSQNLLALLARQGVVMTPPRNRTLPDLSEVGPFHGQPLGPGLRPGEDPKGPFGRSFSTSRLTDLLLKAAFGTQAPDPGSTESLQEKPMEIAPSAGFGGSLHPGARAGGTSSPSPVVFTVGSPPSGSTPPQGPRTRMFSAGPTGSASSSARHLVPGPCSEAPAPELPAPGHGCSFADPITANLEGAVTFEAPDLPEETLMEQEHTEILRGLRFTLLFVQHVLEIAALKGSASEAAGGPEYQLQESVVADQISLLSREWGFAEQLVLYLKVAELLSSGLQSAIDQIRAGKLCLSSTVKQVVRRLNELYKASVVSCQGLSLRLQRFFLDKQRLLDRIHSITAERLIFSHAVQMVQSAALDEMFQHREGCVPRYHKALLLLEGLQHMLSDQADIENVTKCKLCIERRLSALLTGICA
Chain of UniProt Q6HA09 (whole entry, looked up): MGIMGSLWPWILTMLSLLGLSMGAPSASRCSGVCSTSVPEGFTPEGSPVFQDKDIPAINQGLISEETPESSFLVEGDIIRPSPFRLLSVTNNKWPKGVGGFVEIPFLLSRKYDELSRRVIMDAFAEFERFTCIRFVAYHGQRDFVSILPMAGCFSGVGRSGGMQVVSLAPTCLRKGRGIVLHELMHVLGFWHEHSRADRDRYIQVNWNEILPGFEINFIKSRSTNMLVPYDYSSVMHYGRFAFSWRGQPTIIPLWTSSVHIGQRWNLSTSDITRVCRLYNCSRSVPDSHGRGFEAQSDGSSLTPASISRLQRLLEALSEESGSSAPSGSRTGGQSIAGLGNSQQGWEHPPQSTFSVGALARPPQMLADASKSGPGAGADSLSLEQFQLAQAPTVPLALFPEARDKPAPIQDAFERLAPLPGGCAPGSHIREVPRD
Chain of UniProt Q6V1X1 (whole entry, looked up): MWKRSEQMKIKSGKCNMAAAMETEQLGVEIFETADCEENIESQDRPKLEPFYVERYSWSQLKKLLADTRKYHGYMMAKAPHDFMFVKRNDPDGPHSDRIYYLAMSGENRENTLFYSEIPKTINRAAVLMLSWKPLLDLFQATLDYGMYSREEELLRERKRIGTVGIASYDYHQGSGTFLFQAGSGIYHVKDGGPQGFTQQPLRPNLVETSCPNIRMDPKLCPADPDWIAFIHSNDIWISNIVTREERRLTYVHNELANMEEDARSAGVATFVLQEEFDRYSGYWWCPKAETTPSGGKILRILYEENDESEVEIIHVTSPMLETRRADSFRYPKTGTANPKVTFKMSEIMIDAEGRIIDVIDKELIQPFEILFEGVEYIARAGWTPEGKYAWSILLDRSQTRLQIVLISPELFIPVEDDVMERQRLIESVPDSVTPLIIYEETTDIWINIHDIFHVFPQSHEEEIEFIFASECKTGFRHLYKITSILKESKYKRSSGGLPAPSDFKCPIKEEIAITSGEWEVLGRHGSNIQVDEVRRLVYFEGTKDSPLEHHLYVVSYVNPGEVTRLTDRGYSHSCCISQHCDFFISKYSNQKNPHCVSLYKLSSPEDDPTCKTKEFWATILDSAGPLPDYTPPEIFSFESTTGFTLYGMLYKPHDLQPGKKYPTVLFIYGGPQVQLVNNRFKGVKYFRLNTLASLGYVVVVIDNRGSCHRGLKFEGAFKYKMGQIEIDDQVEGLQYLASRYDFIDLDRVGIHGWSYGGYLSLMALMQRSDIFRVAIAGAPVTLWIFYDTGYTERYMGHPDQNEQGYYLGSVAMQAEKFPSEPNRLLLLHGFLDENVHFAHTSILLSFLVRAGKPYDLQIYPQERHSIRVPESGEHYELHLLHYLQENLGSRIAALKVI

SMILES	target	assay	test system	setting	how to read	measurement	result
CC(C)[C@@H]1NC(=O)[C@H](Cc2ccccc2)NC(=O)CSC[C@@H](C(N)=O)NC(=O)[C@H](CCC(=O)O)NC(=O)[C@H](CO)NC(=O)[C@H](Cc2c[nH]c3cccc(Cl)c23)NC(=O)[C@H](C2CCCCC2)NC(=O)[C@H](C(C)C)NC(=O)[C@H](Cc2ccc(O)cc2)NC(=O)[C@H](CC(=O)O)NC(=O)[C@H](Cc2c[nH]c3ccccc23)NC(=O)[C@H](Cc2ccc(N)nc2)NC(=O)[C@H](Cc2c[nH]c3ccc(Cl)cc23)NC(=O)[C@H](CCC(=O)O)NC1=O	Interleukin-1 receptor-like 2 (IL1RL2, Homo sapiens, UniProt Q9HB29)	reporter gene (SEAP), inhibitor, HEK-Blue IL-36R reporter	HEK-Blue IL-36R cells	0.046 µM, 6 h, together with: IL-36γ 100 ng/mL		remaining activity	103%
CCc1ccc(C(=O)N2c3ccc(F)cc3[C@@H](Nc3ccccc3)C[C@H]2C)cc1	Ecdysone receptor (Aedes albopictus, UniProt Q9U3Y4)	ligand binding, inhibitor	intact cells	together with: [3H]ponasterone A	direction not given	pIC50 Z-score	-0.31
CCCCCCCCCCCCC/C=C/C=O	Protein phosphatase 1G (Homo sapiens, UniProt O15355)	competitive isoTOP-ABPP, measured: PPM1G cysteine peptide	Ramos soluble proteome	100 µM, together with: iodoacetamide probe	baseline: DMSO over compound-treated, higher = stronger cysteine blockade	isoTOP-ABPP competition ratio	1.1
CCC1(CC)C(=O)N(c2ccc(CC(=O)O)cc2)C1=O.O=C(O)C(F)(F)F	Dipeptidyl peptidase 8 (Homo sapiens, UniProt Q6V1X1)	enzyme activity, inhibitor		5 µM		activity vs control	23%
CC[C@H](C)[C@@H]1NC(=O)[C@H](Cc2ccccc2)NC(=O)[C@H](CCC(=O)O)NC(=O)[C@H](CCCNC(=N)N)NC(=O)CNC(=O)[C@@H](NC(=O)[C@H](CC(C)C)NC(=O)[C@H](CCCNC(=N)N)NC(=O)[C@@H](NC(=O)CNC(=O)[C@H](Cc2ccc(O)cc2)NC(=O)[C@@H]2CCCN2C(=O)[C@H](C)NC(=O)[C@H](C)NC(=O)[C@@H](N)CCCNC(=N)N)C(C)C)CSSC[C@@H]2NC(=O)[C@@H](NC(=O)[C@H](CO)NC(=O)[C@H](CO)NC(=O)[C@H](CO)NC(=O)[C@H](CC(C)C)NC(=O)CNC(=O)[C@H](C)NC(=O)[C@H](CC(C)C)NC(=O)[C@@H](NC(=O)[C@@H](N)CC(=O)O)C(C)C)CSSC[C@H](NC(=O)CNC(=O)[C@H](Cc3c[nH]c4ccccc34)NC(=O)[C@H](CCCCN)NC2=O)C(=O)N[C@@H](CO)C(=O)N[C@@H](CCCCN)C(=O)N[C@@H](CO)C(=O)N[C@@H](CCC(=O)O)C(=O)N[C@@H]([C@@H](C)CC)C(=O)N[C@@H](CO)C(=O)N[C@@H](CO)C(=O)N[C@@H](CC(C)C)C(=O)N[C@H](C(=O)O)CSSC[C@@H](C(=O)NCC(=O)NCC(=O)N[C@@H](CO)C(=O)N[C@@H](CCCNC(=N)N)C(=O)N[C@@H](Cc2c[nH]c3ccccc23)C(=O)O)NC(=O)[C@H]([C@@H](C)O)NC(=O)[C@H](Cc2ccccc2)NC(=O)[C@H]([C@@H](C)CC)NC(=O)[C@H](C(C)C)NC(=O)[C@H](C)NC(=O)[C@H](CCCNC(=N)N)NC1=O	RXFP3 (Homo sapiens, UniProt Q9NSD7, F371A)		HEK-293T		baseline: wild type	Emax	67 ± 4.84%
O=C(CCN(Cc1ccc(Cl)c(O)c1F)Cc1ccc(Cl)c(O)c1F)NO	Astacin-like metalloendopeptidase (Astl, Mus musculus, UniProt Q6HA09)	enzyme activity, inhibitor, fluorogenic		0.25 µM		remaining activity	46 ± 3%
N=C(N)NCCC[C@H](NC(=O)[C@@H]1CCCN1C(=O)[C@H](CCCNC(=N)N)NC(=O)[C@@H]1CCCN1C(=O)[C@H](CCCNC(=N)N)NC(=O)[C@@H]1CCCN1C(=O)[C@H](CCCNC(=N)N)NC(=O)[C@@H]1CCCN1C(=O)[C@H](CCCNC(=N)N)NC(=O)[C@@H]1CCCN1C(=O)[C@H](CCCNC(=N)N)NC(=O)[C@@H]1CCCN1C(=O)[C@H](CCCNC(=N)N)NC(=O)[C@@H]1CCCN1C(=O)[C@H](CCCNC(=N)N)NC(=O)[C@@H]1CCCN1C(=O)[C@H](CCCNC(=N)N)NC(=O)[C@@H]1CCCN1C(=O)[C@H](CCCNC(=N)N)NC(=O)[C@@H]1CCCN1C(=O)[C@H](CCCNC(=N)N)NC(=O)[C@@H]1CCCN1C(=O)[C@H](CCCNC(=N)N)NC(=O)[C@@H]1CCCN1C(=O)[C@H](CCCNC(=N)N)NC(=O)[C@@H]1CCCN1C(=O)[C@H](CCCNC(=N)N)NC(=O)[C@@H]1CCCN1C(=O)[C@H](CCCNC(=N)N)NC(=O)[C@@H]1CCCN1C(=O)[C@H](CCCNC(=N)N)NC(=O)[C@@H]1CCCN1C(=O)[C@H](CCCNC(=N)N)NC(=O)[C@@H]1CCCN1C(=O)[C@H](CCCNC(=N)N)NC(=O)[C@@H]1CCCN1C(=O)[C@H](CCCNC(=N)N)NC(=O)[C@@H]1CCCN1C(=O)[C@H](CCCNC(=N)N)NC(=O)[C@@H]1CCCN1C(=O)[C@H](CCCNC(=N)N)NC(=O)[C@@H]1CCCN1C(=O)[C@H](CCCNC(=N)N)NC(=O)[C@@H]1CCCN1C(=O)[C@H](CCCNC(=N)N)NC(=O)[C@@H]1CCCN1C(=O)[C@H](Cc1ccc(O)cc1)NC(=O)[C@H](CO)NC(=O)CN)C(=O)O	Nucleophosmin (NPM1, Homo sapiens, UniProt P06748)	SANS Guinier analysis		0.5 molar excess over NPM1, 25 °C		radius of gyration	68.3 ± 3.55 Å
Clc1ccc(C(Cn2cnc3ccccc32)OCc2ccc(Br)cc2)c(Cl)c1 (stereo not shown)	ULK1 (Homo sapiens, UniProt O75385)	enzyme activity, inhibitor, ADP detection		0.1 µM		activity vs control	102%
CC(C)Oc1cc(Cl)ccc1CNc1cc(-c2ccccc2)nc2ncnn12	GPR3 (Homo sapiens, UniProt P46089, L128A)	agonist, cAMP GloSensor		L128A mutant	baseline: wild type	potency improvement	~6 fold
COC(=O)[C@@]1(Cc2ccccc2)C=C(C(=O)OC(C)(C)C)C(=O)CC1	MAPK8	D-peptide binding, inhibitor, FP peptide displacement		15.62 µM	lower is stronger displacement	fraction bound	0.182
O=[N+]([O-])c1cc(Br)cc([N+](=O)[O-])c1NS(=O)(=O)c1ccc(Br)cc1	PYL10, with HAB1 (Arabidopsis thaliana, UniProt Q8H1R0)	antagonist		20 µM, together with: ABA 5 µM	higher = more HAB1 activity	HAB1 phosphatase activity	0.086 a.u. and 0.085 a.u. and 0.084 a.u.
CC(C)(C)OC(=O)C1=C[C@@](C)(C(=O)OCC#Cc2ccncc2)CCC1=O	MAPK8	D-peptide binding, inhibitor, FP peptide displacement		25 µM	lower is stronger displacement	fraction bound	0.42
O=C1CCC(N2Cc3c(NC(=O)OCc4cc(C(=O)O)ccc4OP(=O)(O)O)cccc3C2=O)C(=O)N1 (stereo not shown)	Alkaline phosphatase, placental type (Homo sapiens, UniProt P05187)	substrate		100 µM, pH 7.6, 37 °C		drug formation rate	2.24 pmol/min

For quick reference, copied from above:
SMILES	target	assay	test system	setting	how to read	measurement	result
O=C(CCN(Cc1ccc(Cl)c(O)c1F)Cc1ccc(Cl)c(O)c1F)NO	Astacin-like metalloendopeptidase (Astl, Mus musculus, UniProt Q6HA09)	enzyme activity, inhibitor, fluorogenic		0.25 µM		remaining activity	46 ± 3%
N=C(N)NCCC[C@H](NC(=O)[C@@H]1CCCN1C(=O)[C@H](CCCNC(=N)N)NC(=O)[C@@H]1CCCN1C(=O)[C@H](CCCNC(=N)N)NC(=O)[C@@H]1CCCN1C(=O)[C@H](CCCNC(=N)N)NC(=O)[C@@H]1CCCN1C(=O)[C@H](CCCNC(=N)N)NC(=O)[C@@H]1CCCN1C(=O)[C@H](CCCNC(=N)N)NC(=O)[C@@H]1CCCN1C(=O)[C@H](CCCNC(=N)N)NC(=O)[C@@H]1CCCN1C(=O)[C@H](CCCNC(=N)N)NC(=O)[C@@H]1CCCN1C(=O)[C@H](CCCNC(=N)N)NC(=O)[C@@H]1CCCN1C(=O)[C@H](CCCNC(=N)N)NC(=O)[C@@H]1CCCN1C(=O)[C@H](CCCNC(=N)N)NC(=O)[C@@H]1CCCN1C(=O)[C@H](CCCNC(=N)N)NC(=O)[C@@H]1CCCN1C(=O)[C@H](CCCNC(=N)N)NC(=O)[C@@H]1CCCN1C(=O)[C@H](CCCNC(=N)N)NC(=O)[C@@H]1CCCN1C(=O)[C@H](CCCNC(=N)N)NC(=O)[C@@H]1CCCN1C(=O)[C@H](CCCNC(=N)N)NC(=O)[C@@H]1CCCN1C(=O)[C@H](CCCNC(=N)N)NC(=O)[C@@H]1CCCN1C(=O)[C@H](CCCNC(=N)N)NC(=O)[C@@H]1CCCN1C(=O)[C@H](CCCNC(=N)N)NC(=O)[C@@H]1CCCN1C(=O)[C@H](CCCNC(=N)N)NC(=O)[C@@H]1CCCN1C(=O)[C@H](CCCNC(=N)N)NC(=O)[C@@H]1CCCN1C(=O)[C@H](CCCNC(=N)N)NC(=O)[C@@H]1CCCN1C(=O)[C@H](CCCNC(=N)N)NC(=O)[C@@H]1CCCN1C(=O)[C@H](Cc1ccc(O)cc1)NC(=O)[C@H](CO)NC(=O)CN)C(=O)O	Nucleophosmin (NPM1, Homo sapiens, UniProt P06748)	SANS Guinier analysis		0.5 molar excess over NPM1, 25 °C		radius of gyration	68.3 ± 3.55 Å
